Assay results collected from several papers.
Every numbered part comes from another study and shows a few of its results, in no order. Values joined by “and” are separate records of one study, mostly repeats; a detail may differ.

Sample 1
Cell line: mouse MPNST tumor cells
Technique: high-content immunofluorescence imaging
Measured: nuclear SOX9
Tested at: 10 µM
Time: 12 h
Notes: mean of 2 replicates
Relative to: DMSO control
Direction: higher = more nuclear SOX9
Compound	nuclear SOX9 intensity
Cc1ccc(/C=N/NC(=O)c2ccccc2Oc2ccccc2)o1	111 % of DMSO
CC(C)(NS(=O)(=O)c1ccc(Oc2ccc(F)cc2)cc1)C(=O)NO	110 % of DMSO
COc1cc2nc(N3CCN(C(=O)C4CCCO4)CC3)nc(N)c2cc1OC (stereo not drawn)	115 % of DMSO and 107 % of DMSO
COC(=O)c1cc2c(C(F)(F)F)cc(-c3ccccc3)cc2n1O	114 % of DMSO
NS(=O)(=O)c1ccc(N2CCN(CC[C@@H]3OCCc4ccccc43)CC2)cc1	94.2 % of DMSO
CC(C)(C)CC(=O)Nc1c(F)cc(C(=O)N=c2sccn2COP(=O)(O)O)cc1F	97.8 % of DMSO
CC(=O)O[C@]1(C(C)=O)CC[C@H]2[C@@H]3C=C(C)C4=CC(=O)CC[C@]4(C)[C@H]3CC[C@@]21C	102 % of DMSO and 99.5 % of DMSO
CN1[C@@H]2CC[C@H]1C[C@@H](OC(=O)C(O)c1ccccc1)C2 (mixture of isomers)	98.3 % of DMSO
CC(C)NCC(O)c1ccc2ccccc2c1 (stereo not drawn)	114 % of DMSO

Sample 2
Cell line: normal adjacent epithelium patient-derived organoids
Technique: CellTiter-Glo
Tested at: 1 µM
Notes: mean of five organoid lines
Relative to: DMSO
SMILES	viability [%]
CN(C)c1ncnc(-c2ccc3nc(Nc4cc(CN5CCN(C(=O)CC(F)(F)F)CC5)ccn4)[nH]c3c2)c1Cl	94.2
O=C(O)[C@@H]1[C@@H](Cn2nnc3ccccc3c2=O)CC[C@H]1C(=O)c1ccc(OCCC2CCOCC2)cc1	113
Cc1c(C(=O)O)cc(-c2ccc(C3CCNCC3)cc2)c2ccc(-c3ccc(C(F)(F)F)cc3)cc12	110
Cn1cc(Cl)c2c(Oc3c(F)cc(Nc4cc(Cl)nc(N)n4)cc3F)ccnc21	124
CCNC(=O)c1cc2c(N3CCOC[C@@H]3C)ccnc2[nH]1	110
O=C(O)c1cc(-c2ccc(C3CCNCC3)cc2)c2ccc(-c3ccc(C(F)(F)F)cc3)cc2c1	108
CN1CCN(C(=O)C(C)(C)c2ccc(C(=O)Nc3cn4cc(-c5ccncc5)ccc4n3)cc2)CC1	49.7
CO[C@@H](C)c1c(Nc2ccc([C@@H](N(C)C(=O)C3CCS(=O)(=O)CC3)C(F)(F)F)cc2)cnc2cc(Cl)nn12	117
c1ccc2oc(-c3csc(C4CCN(Cc5nc6ncccc6[nH]5)CC4)n3)cc2c1	46.1
O=C(N1CCS(=O)(=O)CC1)N1C[C@H](c2ccc(OC(F)(F)F)cc2)C[C@H](c2nc(C3CC3)no2)C1	109
O=C(Nc1cnc(Oc2ccc(F)cc2)nc1)N1CCc2ncccc2[C@@H]1c1ccc(F)cc1	128
C[C@H](NC(=O)Nc1cc2[nH]ncc2c(CO)n1)c1ccccn1	103
O=C(NCc1ncc(C(F)(F)F)cc1Cl)c1ccc2c(c1)C1(CCS(=O)(=O)CC1)[C@@H](C1CC1)N2S(=O)(=O)c1ccc(F)cc1	107

Sample 3
SMILES: Cc1cc2c(C(N)=O)c(N)n(-c3c(C)ccc(O)c3C)c2nc1C
Relative to: DMSO
cell line	technique	tested at	time	cell growth
NCI-H69	MTT	1.11 µM	5 d	97.2% and 96.6%
NCI-H1048	MTT	13.7 nM	5 d	101% and 99.2%
NCI-H446	Vi-Cell counting	371 nM	5 days	90.9% and 91.4%
NCI-H446	Vi-Cell counting	1.11 µM	5 days	77.9% and 87.7%
NCI-H446	Vi-Cell counting	4.57 nM	5 days	96.9% and 107%
NCI-H1048	MTT	41.1 nM	5 d	91.7% and 85.4%

Sample 4
Target: Ribosomal protein S6 kinase beta-2 (RPS6KB2, Homo sapiens, UniProt Q9UBS0)
Chain of UniProt Q9UBS0 (whole entry, looked up): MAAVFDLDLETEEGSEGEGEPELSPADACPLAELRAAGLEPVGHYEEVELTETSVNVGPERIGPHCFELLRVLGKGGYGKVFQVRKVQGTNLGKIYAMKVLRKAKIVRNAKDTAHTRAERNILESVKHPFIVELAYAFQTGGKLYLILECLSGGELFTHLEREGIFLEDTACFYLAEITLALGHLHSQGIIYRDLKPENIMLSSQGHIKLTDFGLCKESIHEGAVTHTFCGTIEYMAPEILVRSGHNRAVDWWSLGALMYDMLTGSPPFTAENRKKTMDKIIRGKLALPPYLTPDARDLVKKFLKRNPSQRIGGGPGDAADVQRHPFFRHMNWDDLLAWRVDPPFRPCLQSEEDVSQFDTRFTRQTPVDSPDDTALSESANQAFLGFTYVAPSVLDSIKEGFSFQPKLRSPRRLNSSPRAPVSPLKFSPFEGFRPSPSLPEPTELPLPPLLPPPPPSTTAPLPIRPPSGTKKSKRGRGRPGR
Read-out: enzyme activity
Mode: inhibitor
Tested at: 0.5 µM
Relative to: control
SMILES	remaining activity
O=C1Cc2c([nH]c3ccc([N+](=O)[O-])cc23)-c2ccccc2N1	96.5%
N#CC(=C(N)Sc1ccc(N)cc1)c1ccccc1C(F)(F)F	105%
COc1cc(Nc2c(C#N)cnc3cc(OCCCN4CCN(C)CC4)c(OC)cc23)c(Cl)cc1Cl	107%
CCc1[nH]c(-c2ccc(OC)cc2)nc1-c1ccncc1	95.6%
CCCC(=O)Oc1ccc2[nH]c(C(=O)c3cc4ccccc4[nH]3)cc2c1	102%
